Experimental data pooled from the literature.
Compare with care: the assays were run in different laboratories. ± marks the error that the study gave. Ends that are not written are not given here.
B1: chain SAGSPTPGTSESATPESGPGSEPATSGSETPGTSESATPESGPGSEPATSGSETPGTSESATPESGPGTSTEPSEGSAPGTSESATPESGPGSPAGSPTSTEEGSPAGSPTSTEEGSPAGSPTSTEEGTSESATPESGPGTSTEPSEGSAPGTSESATPESGPGSEPATSGSETPGTSESATPESGPGSEPATSGSETPGTSESATPESGPGTSTEPSEGSAPGSPAGSPTSTEEGTSESATPESGPGSEPATSGSETPGTSESATPESGPGSPAGSPTSTEEGSPAGSPTSTEEGTSTEPSEGSAPGTSESATPESGPGTSESATPESGPGTSESATPESGPGSEPATSGSETPGSEPATSGSETPGSPAGSPTSTEEGTSTEPSEGSAPGTSTEPSEGSAPGSEPATSGSETPTAEAAGCGTAEAASASR
UniProt P02730, sequence (whole entry, looked up): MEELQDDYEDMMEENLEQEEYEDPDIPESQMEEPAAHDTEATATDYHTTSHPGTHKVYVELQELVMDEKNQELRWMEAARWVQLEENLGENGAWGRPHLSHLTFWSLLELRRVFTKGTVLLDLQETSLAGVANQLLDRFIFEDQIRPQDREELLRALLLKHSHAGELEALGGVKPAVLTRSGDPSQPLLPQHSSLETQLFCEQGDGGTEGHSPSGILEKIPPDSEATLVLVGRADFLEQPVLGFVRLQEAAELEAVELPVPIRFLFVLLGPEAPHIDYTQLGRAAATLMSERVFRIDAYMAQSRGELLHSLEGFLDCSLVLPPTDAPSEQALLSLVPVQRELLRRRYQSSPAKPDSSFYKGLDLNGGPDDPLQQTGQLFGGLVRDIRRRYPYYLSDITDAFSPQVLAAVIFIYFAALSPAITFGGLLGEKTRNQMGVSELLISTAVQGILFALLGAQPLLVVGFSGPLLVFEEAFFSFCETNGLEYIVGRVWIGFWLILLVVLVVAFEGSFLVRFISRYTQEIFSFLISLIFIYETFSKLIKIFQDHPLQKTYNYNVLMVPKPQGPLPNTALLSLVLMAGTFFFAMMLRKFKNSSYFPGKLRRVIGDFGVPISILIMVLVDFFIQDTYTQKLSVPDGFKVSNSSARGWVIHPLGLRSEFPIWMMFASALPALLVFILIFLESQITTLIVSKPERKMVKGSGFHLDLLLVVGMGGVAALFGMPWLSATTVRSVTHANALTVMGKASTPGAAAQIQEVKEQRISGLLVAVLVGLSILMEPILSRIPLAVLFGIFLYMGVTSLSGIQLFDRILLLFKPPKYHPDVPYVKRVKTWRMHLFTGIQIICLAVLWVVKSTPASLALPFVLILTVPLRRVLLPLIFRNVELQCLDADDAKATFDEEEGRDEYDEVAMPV
UniProt P41149, sequence (whole entry, looked up): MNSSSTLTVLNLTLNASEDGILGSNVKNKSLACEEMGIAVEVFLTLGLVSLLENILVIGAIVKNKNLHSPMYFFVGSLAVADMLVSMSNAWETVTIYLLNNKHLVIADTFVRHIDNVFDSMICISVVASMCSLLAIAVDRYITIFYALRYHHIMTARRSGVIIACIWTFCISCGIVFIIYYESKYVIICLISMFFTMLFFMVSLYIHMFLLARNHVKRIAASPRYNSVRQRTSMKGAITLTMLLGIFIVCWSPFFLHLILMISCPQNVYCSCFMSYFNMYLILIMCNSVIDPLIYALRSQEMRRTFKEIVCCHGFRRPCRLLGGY

Molecule	target or system	test	system	setting	how to read	measurement	value
B1	–	C4 reversed-phase HPLC	–	–	longer = more hydrophobic	retention time	20.2 min
COc1cccc2c1C(=O)c1c(O)c3c(c(O)c1C2=O)C[C@@](O)(C(=O)CO)C[C@@H]3O[C@H]1C[C@H](NC(=O)[C@@H]2CCCN2C(=O)CNC(=O)[C@@H](N)CC(C)C)[C@H](O)[C@H](C)O1	–	–	mouse, E0771 tumour-bearing, kidney	intravenous, 92 µmol/kg PhAc-ALGP-Dox	–	Cmax	5.6 µM
CC1=C(I)C(C)=[N+]2C1=C(c1ccc(OCCn3cc(CNC(=O)CSC[C@H](NC(=O)c4ccc(-c5nnc(C)c6c5CCC(O)CCC6)cc4)C(=O)N[C@@H](CCCNC(=N)N)C(=O)N[C@@H](CCCNC(=N)N)C(=O)N[C@@H](CCCNC(=N)N)C(=O)N[C@@H](CCCNC(=N)N)C(=O)N[C@@H](CCCNC(=N)N)C(N)=O)nn3)cc1)c1c(C)c(I)c(C)n1[B-]2(F)F (stereo partly drawn)	–	–	–	1 µM, together with: DPBF, 525 nm light	baseline: rose bengal, erythrosine B	singlet oxygen quantum yield	0.59
C=CC(=O)OCC	cysteine peptide Ac-RFAACAA-COOH	DPRA RapidFire-MS/MS	–	24 h, pH 7.5, together with: 5.0 µM cysteine peptide	–	peptide depletion	inactive
CC(C)[C@H](NC(=O)[C@@H]1CCCN1C(=O)[C@H](CCCNC(=N)N)NC(=O)[C@H](CS)NC(=O)[C@H](Cc1c[nH]c2ccccc12)NC(=O)[C@H](CCCNC(=N)N)NC(=O)[C@@H](Cc1ccccc1)NC(=O)[C@H](Cc1c[nH]cn1)NC(=O)[C@H](CCC(=O)O)NC(=O)[C@H](CS)NC(=O)[C@H](CS)NC(=O)[C@H](CCCCN)NC(=O)[C@@H]1CC(=O)N[C@@H](CCCNC(=N)N)C(=O)N[C@@H](C)C(=O)N[C@@H](CC(=O)O)C(=O)N[C@H](Cc2ccc(O)cc2)C(=O)N1)C(N)=O [technetium-99m labelled]	–	–	C57 mice, kidneys	intravenous, 0.037 MBq, 4 h	–	tissue uptake	98.6 ± 13.5 %ID/g
CSCC[C@H](NC(=O)[C@H](CC(C)C)NC(=O)[C@H](Cc1c[nH]cn1)NC(=O)CNC(=O)[C@@H](NC(=O)[C@H](C)NC(=O)[C@H](Cc1c[nH]c2ccccc12)NC(=O)[C@H](CCC(N)=O)NC(=O)CCCCCNC(=O)[C@H](CCC(=O)NCCCC[C@@H]1NC(=O)[C@@H](Cc2ccc(O)cc2)NC(=O)[C@H](CC(=O)O)NC(=O)CNC(=O)[C@H](CCCNC(=N)N)NC1=O)NC(=O)CN1CCN(CC(=O)O)CCN(CC(=O)O)CC1)C(C)C)C(N)=O [copper-64 labelled]	–	–	ICR SCID mouse, female, stomach	intravenous, 750 kBq, 24 h	–	tissue uptake	0.34 ± 0.12 %ID/g
[I-].[K+]	SLC4A1 (Homo sapiens, UniProt P02730)	Cl- exchange, inhibitor, 36Cl flux, two-site model	erythrocytes	pH 12, both sites protonated, unbuffered point excluded	–	Kd	630 µM
insulin degludec	–	ELISA	human moderate renal impairment, serum	dose not given, single dose	baseline: impaired over normal renal function	Cmax ratio	1.06
KCNTATCATQRLANFLVHSSNNFGPILPPTNVGSNTY (Pramlintide; not fully specified (C-terminus, bridges); cysteine pairing not given here; sequence looked up)	–	item: Hypersensitivity	peptide, obese or overweight humans	concentration not given, ITT population	–	adverse event incidence	0%
glial fibrillary acidic protein	–	–	human EDTA whole blood	24 h, room temperature, delayed centrifugation	–	stability	stable
teriparatide	–	ELISA	healthy women	sc, 20 µg single dose, reference product, arithmetic mean	–	Vz/F	203 ± 96.1 L
insulin	–	HPLC-UV	diabetic rat, plasma	subcutaneous, 4.0 IU/kg	–	Tmax	≤ 1 h
N=C(N)NCCC[C@@H]1NC(=O)[C@H](CCCCNC(=O)CCOCCOCCOCCOCCNC(=O)CC[C@H](NC(=O)CCOCCOCCOCCOCCNC(=O)c2ccc(NN)nc2)C(=O)NCCOCCOCCOCCOCCC(=O)NCCCC[C@@H]2NC(=O)[C@@H](Cc3ccccc3)NC(=O)[C@H](CC(=O)O)NC(=O)CNC(=O)[C@H](CCCNC(=N)N)NC2=O)NC(=O)[C@@H](Cc2ccccc2)NC(=O)[C@H](CC(=O)O)NC(=O)CNC1=O [technetium-99m labelled]	–	–	athymic nude mice, female, U-87 MG glioma xenograft, tumour	intravenous, 0.1 MBq, range over 5 and 60 min	–	tissue uptake	7.24 to 8.72 %ID/g
CC(=O)N[C@@H](CO)C(=O)N[C@@H](Cc1ccc(O)cc1)C(=O)N[C@@H](CO)C(=O)N[C@@H](C)C(=O)N[C@@H](CCC(=O)O)C(=O)N[C@@H](Cc1c[nH]cn1)C(=O)N[C@H](Cc1ccccc1)C(=O)N[C@@H](CCCNC(=N)N)C(=O)N[C@@H](Cc1c[nH]c2ccccc12)C(=O)NCC(=O)N[C@@H](CCCCN)C(=O)N1CCC[C@H]1C(=O)N[C@H](C(N)=O)C(C)C	Melanocortin receptor 5 (Mus musculus, UniProt P41149)	–	–	–	–	EC50	0.053 ± 0.004 nM
O=C(O)C(=O)O	cysteine peptide Ac-RFAACAA-COOH	peptide depletion, DPRA RapidFire-MS/MS	–	24 h, pH 7.5, room temperature, together with: 5.0 µM cysteine peptide	–	IC50	inactive
insulin aspart	–	–	healthy subjects, plasma	subcutaneous, 0.2 U/kg	–	Cmax	2.98 ng/mL
insulin lispro	–	sedimentation velocity AUC	insulin diluent	500 µg/mL, pH 7.4	–	hexamer fraction	~84%
rnpA F107W (Bacillus subtilis)	–	NMR, item: His105	–	25 °C, 0.15 M NaCl, sulfate-bound folded state, numbering of the source, together with: 20 mM Na2SO4	–	pKa	5.46
COc1cccc2c1C(=O)c1c(O)c3c(c(O)c1C2=O)C[C@@](O)(C(=O)CO)C[C@@H]3O[C@H]1C[C@H](NC(=O)[C@@H]2CCCN2C(=O)CN)[C@H](O)[C@H](C)O1	–	–	mouse, E0771 tumour-bearing, liver	intravenous, 92 µmol/kg PhAc-ALGP-Dox	–	Cmax	5.3 µM
insulin aspart	–	–	obese type 2 diabetes patients, serum	subcutaneous, 0.2 U/kg, geometric mean	–	Cmax	0.000363 µM
CC1=C(I)C(C)=[N+]2C1=C(c1ccc(OCCn3cc(CNC(=O)CSC[C@H](NC(=O)c4ccc(-c5nnc(C)c6c5CCC(O)CCC6)cc4)C(=O)N[C@H](CCCNC(=N)N)C(=O)N[C@@H](CC4CCCCC4)C(=O)N[C@H](CCCNC(=N)N)C(=O)N[C@@H](CC4CCCCC4)C(=O)N[C@H](CCCNC(=N)N)C(=O)N[C@@H](CC4CCCCC4)C(=O)N[C@H](CCCNC(=N)N)C(N)=O)nn3)cc1)c1c(C)c(I)c(C)n1[B-]2(F)F (stereo partly drawn)	–	–	–	1 µM, together with: DPBF, 525 nm light	baseline: rose bengal, erythrosine B	singlet oxygen quantum yield	0.59

Repeated from above:
Molecule	target or system	test	system	setting	how to read	measurement	value
rnpA F107W (Bacillus subtilis)	–	NMR, item: His105	–	25 °C, 0.15 M NaCl, sulfate-bound folded state, numbering of the source, together with: 20 mM Na2SO4	–	pKa	5.46
COc1cccc2c1C(=O)c1c(O)c3c(c(O)c1C2=O)C[C@@](O)(C(=O)CO)C[C@@H]3O[C@H]1C[C@H](NC(=O)[C@@H]2CCCN2C(=O)CN)[C@H](O)[C@H](C)O1	–	–	mouse, E0771 tumour-bearing, liver	intravenous, 92 µmol/kg PhAc-ALGP-Dox	–	Cmax	5.3 µM
insulin aspart	–	–	obese type 2 diabetes patients, serum	subcutaneous, 0.2 U/kg, geometric mean	–	Cmax	0.000363 µM
